# Experimental data from different studies.
# Every numbered part comes from another study and shows a few of its results, in no order. Changes are numbered by the printed parent chain.

# Block 1
# Target: Ras GTPase-activating protein-binding protein 1, full length (G3BP1, Homo sapiens, UniProt Q13283)
# Sequence of UniProt Q13283 (whole entry, looked up): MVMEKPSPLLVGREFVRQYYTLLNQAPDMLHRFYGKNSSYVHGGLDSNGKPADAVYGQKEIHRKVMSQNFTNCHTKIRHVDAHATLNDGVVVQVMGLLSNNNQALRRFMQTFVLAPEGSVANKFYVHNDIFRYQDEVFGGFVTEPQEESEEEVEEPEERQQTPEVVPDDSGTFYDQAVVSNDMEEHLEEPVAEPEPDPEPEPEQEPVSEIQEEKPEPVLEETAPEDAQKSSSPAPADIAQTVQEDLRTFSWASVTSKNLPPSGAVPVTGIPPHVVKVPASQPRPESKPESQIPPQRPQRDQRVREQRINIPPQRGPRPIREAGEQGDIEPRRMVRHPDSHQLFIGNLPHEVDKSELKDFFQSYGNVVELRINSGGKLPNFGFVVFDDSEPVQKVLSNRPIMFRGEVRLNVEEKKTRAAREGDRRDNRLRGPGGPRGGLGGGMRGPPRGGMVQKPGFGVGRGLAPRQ
# Method: RNA Bind-n-Seq
# Form: RNA
# Sample: in vitro
# Tested at: 200 nM
# Setting: whole 134-nt RNA, ends assumed
# With: 150 mM KCl
# Relative to: input library
# Reading: higher = stronger binding
# Shared flanks, not repeated: GGGAGUUCUACAGUCCGACGAUC … UGGAAUUCUCGGGUGUCAAGG
Sequence,log2 enrichment
UGGGAGGUGGAUUUUGUUUAUUUUUUUAGCUCAUUUCCAGGGAUGGGAAUUUUUUUUUAAUAUGUGUCAUGAAUAAAGUUGUUUUUGAAA,-0.212
CUGUGCUACACAUCGUAUGUACCGAAUCGGGGUUUUUGGGGAAAAAGGGGUUUUUUUGGGGAAAGUAUUAUGUUACGCCGUUCGGAUCUG,-0.16
CAAGUCCUGUGCUACACAUCGUAUGUACCGAAUCGGGUGGGAAAAAGGGUUUGGGAAAGUAUUAUGUUACGCCGUUCGGAUCUGCACUUC,0.66
CCUCAAGUCCUGUGCUACACAUCGUAUGUACCGAAUCGGGGUGGGUGGGUGGGAAAGUAUUAUGUUACGCCGUUCGGAUCUGCACUUCCA,-0.00319
CACAGACAACACGCACCCACACAGACACAGAGGGAAGGGGUUGGGAUGGGGACAGGGUGCACAGCAGUGCGGGGUAGGACCCCAGCCCCU,1.85
UCUUUAUUUGAGCCAGUCUUGCAAGGUUAACUUCUCACUGGGCCUAGUGUGGUGCCCAGGUUUUUGCCUUGCUUCACUUCUGUCUCUACA,-1.37
CACAGACAACACGCACCAACACAGACACAGAGGGAAGGGGUUGGGAUGGGGACAGGGUGCACAGCAGGGCGGGGUAGGACCCCAGCCCCU,1.69
CACAGACAACACGCACCCACACAGACACAGAGGGAAGGGGUUGGGAUUGGGACAGGGUGCACAGCAGGGCGGGGUAGGACCCCAGCCCCU,1.86

# Block 2
# Target: Eukaryotic initiation factor 4A-I (EIF4A1, Homo sapiens, UniProt P60842, residues 1-406, full length assumed)
# Sequence of UniProt P60842 (whole entry, looked up): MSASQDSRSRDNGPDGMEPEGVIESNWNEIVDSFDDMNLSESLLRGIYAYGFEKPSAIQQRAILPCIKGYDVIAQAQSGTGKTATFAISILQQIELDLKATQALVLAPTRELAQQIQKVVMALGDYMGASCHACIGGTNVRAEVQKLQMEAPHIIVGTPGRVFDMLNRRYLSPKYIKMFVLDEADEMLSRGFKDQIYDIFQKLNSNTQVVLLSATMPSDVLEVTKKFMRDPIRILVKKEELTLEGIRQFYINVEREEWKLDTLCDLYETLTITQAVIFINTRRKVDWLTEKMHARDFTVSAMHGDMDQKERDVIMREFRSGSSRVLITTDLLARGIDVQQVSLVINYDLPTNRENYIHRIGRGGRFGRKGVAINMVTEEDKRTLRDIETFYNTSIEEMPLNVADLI
# Method: RNA Bind-n-Seq
# Form: RNA
# Sample: in vitro
# Tested at: 15 pmol
# Setting: 4-mer, random 30-nt RNA, single round
# With: DMSO vehicle, 2 mM AMP-PNP
# Relative to: input library
# Reading: higher = stronger binding
Sequence,4-mer enrichment [fold]
UGAC,1.51
GUAA,0.757
GCAA,1.13
AUCA,1.21
CCUC,2.08
GCCC,1.21
GCGC,1.05
GAUA,1.09

# Mixed results
# P1: viral docking peptide; KGVKRKLFAEDSS; partner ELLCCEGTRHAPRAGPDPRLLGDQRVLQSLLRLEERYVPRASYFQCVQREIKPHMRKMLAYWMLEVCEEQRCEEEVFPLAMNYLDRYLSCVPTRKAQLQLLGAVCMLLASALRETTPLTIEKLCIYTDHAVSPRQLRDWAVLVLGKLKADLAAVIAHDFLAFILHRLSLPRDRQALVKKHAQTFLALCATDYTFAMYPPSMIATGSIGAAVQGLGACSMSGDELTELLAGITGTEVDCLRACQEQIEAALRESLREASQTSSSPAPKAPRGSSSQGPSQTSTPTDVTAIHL
Molecule,target,test,test system,setting,how to read,quantity,value
P1 E10P,"CCND3, cyclin fold, Cln2 fusion (human)","yeast growth competition, sequencing",yeast,weak parent motif,"relative to: not given, higher = stronger binding",normalised enrichment score,0.339
AFMATNKAY,"HLA class I histocompatibility antigen, A alpha chain, allele A*25:01 (Homo sapiens, UniProt P04439)",peptide-MHC binding,peptide,concentration not given,,binding,inactive

# Some of these lines once more (block 1):
Sequence,log2 enrichment
UCUUUAUUUGAGCCAGUCUUGCAAGGUUAACUUCUCACUGGGCCUAGUGUGGUGCCCAGGUUUUUGCCUUGCUUCACUUCUGUCUCUACA,-1.37
